Measured values gathered from unrelated publications.
A part holds a random share of what one study measured. Positions count from the first letter of the parent shown.

Set 1 — method: aptamer microarray, sandwich; form: DNA with 2'F-ANA; matrix: in vitro; concentration: 200 nM; with: Cy3 exosite-II aptamer, 400 nM; reading: higher = stronger binding; endpoint: mean fluorescence intensity; sequence: GGTTGGTGTGGTTGG
Target: Prothrombin, mature alpha-thrombin (F2, Homo sapiens, UniProt P00734)
Notes: whole 15-mer aptamer, many near background
2'F-ANA at 1 2 4 5 7 12 14 15: 47.8 a.u.
2'F-ANA at 1 5 6 8 9 11 12: 119 a.u.
2'F-ANA at 1 2 5 7 8 12 13 14: 45.5 a.u.
2'F-ANA at 1 5 8 10 11 13: 42.2 a.u.
2'F-ANA at 1 2 3 8 10 11 12 14 15: 52.4 a.u.
2'F-ANA at 2 3 4 6 7 11 13 14 15: 211 a.u.
2'F-ANA at 1 3 9 13 14 15: 78.5 a.u.
2'F-ANA at 3 9 10 11 12 13 14: 378 a.u.
2'F-ANA at 1 3 4 5 6 11 15: 51.3 a.u.
2'F-ANA at 3 4 6 12 14: 336 a.u.
2'F-ANA at 5 6 8 9 10 15: 73.9 a.u.
2'F-ANA at 1 3 8 9 10 11 14 15: 58.8 a.u.
2'F-ANA at 3 4 6 7 11 15: 509 a.u.
2'F-ANA at 1 2 6 9 12 14 15: 57.5 a.u.
2'F-ANA at 3 5 15: 130 a.u.
2'F-ANA at 1 3 8 9 10: 83.6 a.u.

Set 2 — method: RNA Bind-n-Seq; form: RNA; matrix: in vitro; concentration: 365 nM; relative to: no-protein control; reading: higher = stronger binding; endpoint: RBNS enrichment (R)
Target: RNA binding protein fox-1 homolog 2, RRM domain, GST-SBP tag (RBFOX2, Homo sapiens, UniProt O43251-10, residues 100-194)
Notes: natural RNA segment, single round, ends assumed
All sequences stand within: GGGAGUUCUACAGUCCGACGAUC … UGGAAUUCUCGGGUGCCAA
Construct (chain): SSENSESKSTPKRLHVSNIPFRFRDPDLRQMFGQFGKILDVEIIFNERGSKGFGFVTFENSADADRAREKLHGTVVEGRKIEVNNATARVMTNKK
GCUUAAGGUUUUGUUAAAGAAGACGAUAGGUAUGGCUGGAUUAUAUAGUCUUCAGGUUCACAUGAACUUGGCUGUAUUCUGAUAACAUUGAGACCGUUUUCCACCAAGUU: 0.499
GCCUCAACCAACUUAGUGACUUGUUUAGAAAAAAAAGACAAAAAAGUAAAAAUAAAAACAAAAAAGUUGGAAGGCAGAAACCAUUAAAAAACAAAAAGCCAACAACCCAG: 0.785
CAUUCCAGCCGUGAUGAGCAUUGUGAUCCGAGUGGGUGCCACGUGAGAGAGGGACUGUCACUUUCCCAGACAGAAACGGCCUUUUCAGGAACCAGCAGCCGCUAGGCCAA: 0.683
CCCUGAAGAAUCCACAACCAUCCUUCCAAGGUUCUCCAUCCCCACAAUGACUAGCUGUUGCUCUCCAAGCUAAGGGACCAUUCCCUGUCUUAUGCAUAUACGUAAUGUCA: 0.425
CCCUCUAUCAAGUGAGGAGAUUAAGGCUUAAAGAAAGGAAAGGACUUGCCAGCCACCACAGGGCUCAUGAGGGGCUUGAACCCAUGUCGUGUGUCUCUACCACAGCUGAC: 0.377
AUUUCUAGCAUGCUUUUAAUUUCAGAUUUUCAGCUGACAUUAGCUAUAGUAUACAGUAGGUUAAGACUCAUGUCUAUGACUUUCACUCUAAGACUGGCAAAAGGACAGCA: 2.17
AAUAGUGUGAUGUUUGGAUUGAUAUCGUGAAAUCCUCAGCCGAGAAAUUGGGCUGGAUUGUGCUUUGGUUAAUACAUCUUUCCCUAAAGAAGAUAAACACAAAAUCCAUU: 0.455
CGUUCAUAUUCUCAGGCCGCAAGUGCAAUGCCUGAGGGGAUCAGGCUUUUCUACUCCAGGCAAACCUGCCCCAUCUUGUCGCUUUUAGGACCUCCCACAACCUGGUUCCC: 0.275
GCUGCUCUAAGAAGGGGUCUCCUUUACCCUAAAGGCAGCUGGGCAGGGACAGGUGGGAGAAUGGGUGUAGGAGGCAGGCCCCAGGCUCUGCUUCUUGGUGACAGUUGGCC: 0.88
CUGCCAGUGUCAGGCAGGGGCCAGCCCCUCAGCCCCUGAGCCAAGGGGGAAAAGAAGAAAAAGUACCUAACACAAGCUUCCUUUUUGCACAACCGGUCCUCUUGGCUGAG: 0.437
AACGCGGGUGCAGGGGGGCGCGGCUGGGCGGUGCAGCUCCGCCCGGCUCCGCCCCUGCAGCCCACACAGCACAACGUCUUACCGUGCCUAUUACCAAGCGAGUGUUUGUA: 0.463
AGGAAGGGUCCUUGCGUUGACAGCGUGUGGCUUUGGAGUCCGUUUAUGGAAGCACUCUACAAUGAACAGUUGAAUUUUAUGUCUAUUCUUUUUUCCUAUUUUAAAAGUUC: 1.06

Set 3 — method: protein-binding microarray; form: double-stranded DNA, one strand shown; matrix: in vitro; concentration: 250 nM; notes: 60-bp whole probe; with: salmon DNA 0.4 mg/ml; relative to: random background probes; reading: higher = stronger binding; endpoint: log fluorescence; all sequences stand within: GCCTAGCAC … GTCTTGATTCGCTTGACGCTGCTG
Target: Interferon regulatory factor 5, full length, phosphomimetic (IRF5, Homo sapiens, UniProt Q13568-2, residues 1-514, K96S/S451D/S453D/S456D/S462D)
GACGGTATCGGTCTCCGGACGTGCTAG: 5.54 z-score
GACGGTATCGGTCTCGGCACGTGCTAG: 4.99 z-score
GGGTGGGAGCCGAAGACGCCGTGCTAG: -1.26 z-score
TTATGTTCCGGTTTCGGTTAGTGCTAG: 9.91 z-score
GACGGTATCCTTATCCTGACGTGCTAG: -0.208 z-score
TTAGATTTCAGTTTCCATTAGTGCTAG: 3.77 z-score
TTATGTTTCCTTCTCCTTTAGTGCTAG: 1.54 z-score
TTAGATCTCAGTTTCGAGTAGTGCTAG: 6.04 z-score
TTAGATTTGAGTCTCGATTAGTGCTAG: 0.829 z-score
AACGATATCAGTCTCGAGACGTGCTAG: 1.61 z-score
CACGGTATCCTACTGCTGACGTGCTAG: -0.172 z-score
TCACTTCTCGAGTGCCGGACTGTGCTA: -0.131 z-score
GACGGACTGGGTTTCGTGACGTGCTAG: 0.393 z-score
ATAGGTATCCTTCTCCTTTAGTGCTAG: 0.394 z-score
GATATTATATCTGTGTTATTGTGCTAG: 1.41 z-score

Set 4 — method: protein-binding microarray; form: hairpin DNA; matrix: in vitro; concentration: not given; relative to: not given; reading: higher = stronger binding; endpoint: median fluorescence; all sequences stand within: GAGGCCA … TGGCCTCACACTCTT
Target: POU domain, class 6, transcription factor 1, POU and homeodomain (POU6F1, Homo sapiens, UniProt Q14863, residues 311-611)
Notes: whole hairpin DNA, median over replicate spots
Target sequence (chain): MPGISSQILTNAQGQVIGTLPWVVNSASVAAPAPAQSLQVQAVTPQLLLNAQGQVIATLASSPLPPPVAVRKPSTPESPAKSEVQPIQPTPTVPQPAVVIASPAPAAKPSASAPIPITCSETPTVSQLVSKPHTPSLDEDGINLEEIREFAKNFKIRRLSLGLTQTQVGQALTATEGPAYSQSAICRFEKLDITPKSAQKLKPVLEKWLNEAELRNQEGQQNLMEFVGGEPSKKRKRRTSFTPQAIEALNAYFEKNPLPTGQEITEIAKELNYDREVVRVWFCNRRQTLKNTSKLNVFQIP
GAATTAGGTGCCTCCTGGCACCTAATTC: 442 a.u.
CGATGAGGTGCCTCCTGGCACCTCATCG (5mC at 34): 339 a.u.
TAACGAGGTGCCTCCTGGCACCTCGTTA (5mC at 31): 368 a.u.
TAAGGAGGTGCCTCCTGGCACCTCCTTA (5mC at 32): 425 a.u.
TAAATAGGTGCCTCCTGGCACCTATTTA: 572 a.u.
TAATGCGGTGCCTCCTGGCACCGCATTA (5mC at 29): 555 a.u.
TAATGATGTGCCTCCTGGCACATCATTA: 1180 a.u.
TAATTAGGCGCCTCCTGGCGCCTAATTA (5mC at 16): 1610 a.u.
TAATCGGGTGCCTCCTGGCACCCGATTA (5mC at 12 30): 461 a.u.
TAGTTAGGTGCCTCCTGGCACCTAACTA: 370 a.u.
TATTGAGGTGCCTCCTGGCACCTCAATA: 384 a.u.
TAATTAGATGCCTCCTGGCATCTAATTA: 10700 a.u.

Set 5 — method: DHFR PCA, deep sequencing; matrix: yeast; with: (+)-ABA 200 µM; relative to: wild-type fitted maximum; reading: higher = stronger binding; endpoint: relative binding score
Target: ABI1, truncated, D143A, DHFR fusion (Arabidopsis thaliana)
Notes: methotrexate growth selection, single substitutions
Starting sequence: PYL1, truncated, DHFR fusion (Arabidopsis thaliana); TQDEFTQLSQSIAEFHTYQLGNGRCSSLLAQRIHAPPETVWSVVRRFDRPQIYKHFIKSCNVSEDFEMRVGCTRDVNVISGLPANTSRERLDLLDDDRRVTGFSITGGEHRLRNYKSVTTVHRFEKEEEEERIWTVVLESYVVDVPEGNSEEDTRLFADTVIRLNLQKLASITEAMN
R163L: 57.9%
A35F: -5.24%
K58C: 88.3%
E129K: 113%
V143E: -0.477%
E109T: 106%
L29N: 95.9%
F56T: 29.5%
Y18W: 94.9%
I133R: 106%
S117L: 2.77%
E89L: -5.7%
L20V: 104%

A few entries again (set 3):
TTAGATTTCAGTTTCCATTAGTGCTAG: 3.77 z-score
TTATGTTTCCTTCTCCTTTAGTGCTAG: 1.54 z-score
GACGGTATCGGTCTCCGGACGTGCTAG: 5.54 z-score
GATATTATATCTGTGTTATTGTGCTAG: 1.41 z-score
TTATGTTCCGGTTTCGGTTAGTGCTAG: 9.91 z-score
GGGTGGGAGCCGAAGACGCCGTGCTAG: -1.26 z-score
TTAGATTTGAGTCTCGATTAGTGCTAG: 0.829 z-score
